Results gathered from unrelated publications.
A part holds a random share of what one study measured. Changes are numbered by the printed parent chain.

Sample 1
Target: CCNA2, cyclin fold, Cln2 fusion (human)
Method: yeast growth competition, sequencing
Medium: yeast
Setting: strong parent motif
Reference: not given
Direction: higher = stronger binding
Quantity: normalised enrichment score
Starting sequence: RBL1 docking peptide (human); GSAKRRLFGEDPP; partner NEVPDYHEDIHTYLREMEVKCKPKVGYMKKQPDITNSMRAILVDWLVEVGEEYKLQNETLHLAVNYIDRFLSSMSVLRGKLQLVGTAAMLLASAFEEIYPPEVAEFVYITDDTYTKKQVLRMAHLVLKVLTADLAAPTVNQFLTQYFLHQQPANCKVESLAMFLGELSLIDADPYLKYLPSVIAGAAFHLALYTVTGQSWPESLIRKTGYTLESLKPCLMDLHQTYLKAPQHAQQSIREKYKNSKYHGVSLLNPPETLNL
Change = GSAKKRLFGEDPP [R5K]; value = 5
Change = GSAKRRLFGEPPP [D11P]; value = 4.54
Change = GCAKRRLFGEDPP [S2C]; value = 6.33
Change = GSAKRRLFSEDPP [G9S]; value = 6.59
Change = GSAKRKLFGEDPP [R6K]; value = 5.5
Change = GSCKRRLFGEDPP [A3C]; value = 6.44
Change = GSAKRRLFAEDPP [G9A]; value = 7.39
Change = GSHKRRLFGEDPP [A3H]; value = 2.47
Change = GSAIRRLFGEDPP [K4I]; value = 2.6
Change = GSAKRRLFGEDPT [P13T]; value = 5.5
Change = GSAKRRLFGEQPP [D11Q]; value = 5.71
Change = GSAKRRLFLEDPP [G9L]; value = 5.28
Change = GSAKRLLFGEDPP [R6L]; value = 2.24
Change = GSAYRRLFGEDPP [K4Y]; value = 3.49
Change = GGAKRRLFGEDPP [S2G]; value = 6.26
Change = GSAKHRLFGEDPP [R5H]; value = 0.395
Change = GSAKRRLFGEDPK [P13K]; value = 5.05
Change = GSAKRRLFGESPP [D11S]; value = 5.42
Change = GSAKRRLFGEDPD [P13D]; value = 6.12
Change = GSAKRRLFGIDPP [E10I]; value = 5.74

Sample 2
Target: Interferon regulatory factor 7, full length, phosphomimetic (IRF7, Homo sapiens, UniProt Q92985, residues 1-503, S101K/S471D/S472D/S475D/S476D/S477D/S483D/S484D/S487D)
Method: protein-binding microarray
Molecule type: double-stranded DNA, one strand shown
Medium: in vitro
Tested at: 250 nM
Setting: 60-bp whole probe
With: salmon DNA 0.4 mg/ml
Reference: random background probes
Direction: higher = stronger binding
Quantity: log fluorescence
Constant ends, left off below: GCCTAGCAC … GTCTTGATTCGCTTGACGCTGCTG
Construct (chain): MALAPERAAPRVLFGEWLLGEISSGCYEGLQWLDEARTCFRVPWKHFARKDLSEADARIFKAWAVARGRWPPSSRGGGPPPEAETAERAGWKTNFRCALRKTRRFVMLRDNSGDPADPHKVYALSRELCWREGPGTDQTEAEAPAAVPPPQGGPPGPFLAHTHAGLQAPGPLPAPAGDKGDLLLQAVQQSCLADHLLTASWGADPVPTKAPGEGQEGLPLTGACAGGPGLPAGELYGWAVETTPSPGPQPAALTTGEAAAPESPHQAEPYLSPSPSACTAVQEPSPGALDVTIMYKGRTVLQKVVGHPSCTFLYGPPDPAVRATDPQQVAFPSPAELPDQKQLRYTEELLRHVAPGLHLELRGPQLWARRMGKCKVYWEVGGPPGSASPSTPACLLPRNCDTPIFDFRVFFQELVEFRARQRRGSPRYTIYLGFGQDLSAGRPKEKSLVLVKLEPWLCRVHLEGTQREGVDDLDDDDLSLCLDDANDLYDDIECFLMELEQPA
Sequence = TTAGGTTTCCTATCCCTTTAGTGCTAG; value = 1.85 z-score
Sequence = TTAGGTCTCCAACTGCTTTAGTGCTAG; value = -0.0818 z-score
Sequence = TTAGGACTGGACGCTGGGTTAGTGCTA; value = -0.717 z-score
Sequence = TCAAGTTTTAATAACACACTGTGCTAG; value = 0.104 z-score
Sequence = GAGGAACTGAGACTGGAGACGTGCTAG; value = -0.577 z-score
Sequence = GACGGTATCCTACCGCTGACGTGCTAG; value = -0.211 z-score
Sequence = TTAGGTTTCGGTTTCGGATAGTGCTAG; value = 14.9 z-score
Sequence = TTAGATCTCCGTATCGATTAGTGCTAG; value = 0.348 z-score
Sequence = GACGGACTGGGGTATGGGGACGTGCTA; value = -0.575 z-score
Sequence = TTAGGACTGCTAATCCTTTAGTGCTAG; value = -0.176 z-score
Sequence = GCCGATTTCGGGTTTCGAGACGTGCTA; value = 4.87 z-score
Sequence = GAAGGTATCCTTATCCTGACGTGCTAG; value = 0.114 z-score
Sequence = GGCGGTATCGACACTGGGGACGTGCTA; value = -0.388 z-score
Sequence = TATATTATATATTTATGTATGTGCTAG; value = 0.793 z-score
Sequence = GTCGGTATCCTTATCCTGACGTGCTAG; value = 0.733 z-score
Sequence = TCATTTTTCTACTTCTGACTGTGCTAG; value = 2.2 z-score
Sequence = TTAGAACTTAGACTGGATTAGTGCTAG; value = -0.148 z-score
Sequence = GACGATCTCAGACTCGAGACGTGCTAG; value = 0.152 z-score
Sequence = GACGGTCTTCTTATCCTGACGTGCTAG; value = 0.181 z-score

Sample 3
Target: Ras GTPase-activating protein-binding protein 1, RRM domain (G3BP1, Homo sapiens, UniProt Q13283)
Sequence of UniProt Q13283 (whole entry, looked up): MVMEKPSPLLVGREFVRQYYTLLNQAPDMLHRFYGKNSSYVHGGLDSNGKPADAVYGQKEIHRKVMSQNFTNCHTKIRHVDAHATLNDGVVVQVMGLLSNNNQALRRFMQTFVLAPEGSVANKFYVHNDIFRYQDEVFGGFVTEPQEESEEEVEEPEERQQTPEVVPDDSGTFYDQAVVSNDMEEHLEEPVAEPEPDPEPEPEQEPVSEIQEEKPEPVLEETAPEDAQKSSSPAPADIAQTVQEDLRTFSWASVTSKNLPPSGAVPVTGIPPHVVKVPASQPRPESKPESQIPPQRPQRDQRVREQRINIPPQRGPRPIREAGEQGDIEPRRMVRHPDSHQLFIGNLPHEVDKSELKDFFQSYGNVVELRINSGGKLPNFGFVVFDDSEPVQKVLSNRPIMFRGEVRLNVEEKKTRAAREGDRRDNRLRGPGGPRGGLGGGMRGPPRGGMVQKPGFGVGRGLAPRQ
Method: RNA Bind-n-Seq
Molecule type: RNA
Medium: in vitro
Tested at: 1 µM
Setting: whole 134-nt RNA, ends assumed
With: 150 mM KCl
Reference: input library
Direction: higher = stronger binding
Quantity: log2 enrichment
Constant ends, left off below: GGGAGUUCUACAGUCCGACGAUC … UGGAAUUCUCGGGUGUCAAGG
Sequence = AAGUCCUGUGCUACACAUCGUAUGUACCGAAUCGGGUUUUUGGGAAAAAGGGAGGGAAAGUAUUAUGUUACGCCGUUCGGAUCUGCACUU; value = 0.706
Sequence = UAGCAAGCCAAAUUACAGCAGCAGAUGGACCUGCAGAAAAAUCACAUUUUCCGUCUGACUCAAGGACUGCAAGAAGCUCUAGAUCGGGCU; value = -0.174
Sequence = UGGGAGGUGGAUUUUGUUUAUUUUUUUAGCUCAUUUCCAGGGUUGGGAAUUUUUUUUUAAUAUGUGUCAUGAAUAAAGUUGUUUUUGAAA; value = 1.75
Sequence = GCAGGAAGUAAAAACAAAUGGAAAUGCUUCGGAUAGUGGCAGGGGUGGGGGUUGCUAAGGAAAGGGUGGGAUGGGAGUGGGUAAAGAAAU; value = 1.28
Sequence = ACCAUGCAGGUGGGCAACUUUGGGAAGUGGGGCAAGGGGGGGAUAGGGAGGGGGGUAACACUUUGGGAACAGGUGGUCCCAGGUCGUUUC; value = -0.544
Sequence = CCUGUGCUACACAUCGUAUGUACCGAAUCGGGAAAAAAGGGAAAAAAGGGGAAAAAAGGGGAAAGUAUUAUGUUACGCCGUUCGGAUCUG; value = 0.116
Sequence = UCAAGUCCUGUGCUACACAUCGUAUGUACCGAAUCGGUUUUUGGUUUUUGGUGGAAAGUAUUAUGUUACGCCGUUCGGAUCUGCACUUCC; value = -0.232
Sequence = CUCAAGUCCUGUGCUACACAUCGUAUGUACCGAAUCGGAGGAAAGGUUUUUGGAAAGUAUUAUGUUACGCCGUUCGGAUCUGCACUUCCA; value = -0.226
Sequence = UCCUCAAGUCCUGUGCUACACAUCGUAUGUACCGAAUCGGCCGGCCGGCCGGAAAGUAUUAUGUUACGCCGUUCGGAUCUGCACUUCCAG; value = -0.406

Sample 4
Target: ABI1, truncated, D143A, DHFR fusion (Arabidopsis thaliana)
Method: DHFR PCA, deep sequencing
Medium: yeast
Setting: methotrexate growth selection, single substitutions
With: (+)-ABA 4.8 µM
Reference: wild-type fitted maximum
Direction: higher = stronger binding
Quantity: relative binding score
Starting sequence: PYL1, truncated, DHFR fusion (Arabidopsis thaliana); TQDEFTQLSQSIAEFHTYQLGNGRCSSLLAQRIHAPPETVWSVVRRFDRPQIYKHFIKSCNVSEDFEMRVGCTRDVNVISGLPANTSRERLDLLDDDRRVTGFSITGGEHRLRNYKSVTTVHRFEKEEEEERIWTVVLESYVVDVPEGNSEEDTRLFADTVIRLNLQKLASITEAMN; partner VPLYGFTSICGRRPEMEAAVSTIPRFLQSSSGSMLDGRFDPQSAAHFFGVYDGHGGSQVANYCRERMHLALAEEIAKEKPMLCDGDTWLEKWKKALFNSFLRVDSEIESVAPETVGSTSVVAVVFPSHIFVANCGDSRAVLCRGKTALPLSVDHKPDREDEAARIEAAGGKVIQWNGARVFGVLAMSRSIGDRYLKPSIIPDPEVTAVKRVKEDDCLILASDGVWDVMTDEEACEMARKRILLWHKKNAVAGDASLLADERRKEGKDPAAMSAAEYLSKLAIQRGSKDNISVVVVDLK
Change = G102L; value = -9.61%
Change = V40R; value = -10.9%
Change = Y115K; value = -1.83%
Change = P36W; value = 5.43%
Change = A175V; value = 59.4%
Change = V62L; value = 66.9%
Change = T101M; value = 80.2%
Change = D48I; value = -4.67%
Change = L8S; value = 11.7%
Change = T39W; value = 33.7%
Change = L20R; value = 74.4%
Change = T173R; value = 1.35%
Change = G81Q; value = 4.07%
Change = K116T; value = 52.6%
Change = S104E; value = -5.87%
Change = K126W; value = 61%
Change = V121E; value = -4.08%
Change = E139V; value = 63.6%
Change = G108M; value = -5.82%
Change = L20P; value = 84.3%
Change = H34I; value = 45.2%
Change = L94K; value = -6.83%
Change = V100R; value = 7.82%

Excerpt of the above (sample 1):
Change = GSAKRRLFGEDPK [P13K]; value = 5.05
Change = GCAKRRLFGEDPP [S2C]; value = 6.33
Change = GSAKRRLFGEQPP [D11Q]; value = 5.71
Change = GSAKRRLFGEDPT [P13T]; value = 5.5
Change = GSAKRRLFGEDPD [P13D]; value = 6.12
Change = GSAKRRLFSEDPP [G9S]; value = 6.59
Change = GSAIRRLFGEDPP [K4I]; value = 2.6
